Measured values gathered from unrelated publications.
Protocols differ between the studies behind these lines. Values joined by “and” are separate records of one study, mostly repeats; a detail may differ. ± marks the error that the study gave.

SMILES	cell line	assay	setting	how to read	inhibition
CCOC(=O)c1nn(-c2ccccc2)c(C#N)c1NC(=O)c1nn(CC)cc1C	human monocytes	phagocytosis of anti-D RBCs	5 µM, lab-synthesized sample		30 ± 6.7%
Cc1nc(Nc2ncc(C(=O)Nc3c(C)cccc3Cl)s2)cc(N2CC[C@H](O)C2)n1	NAMALWA CSN/70	cell proliferation, CellTiter-Glo	10 µM, 72 h		36%
Cc1nn(-c2nc3c(F)cc(F)cc3s2)c(O)c1C(c1ccc(C(F)(F)F)cc1)c1c(C)nn(-c2nc3c(F)cc(F)cc3s2)c1O	RAW-ISG	IFN luciferase reporter	2.5 µM, with: HT-DNA		49% and 50.5% and 43.4% and 45.5% and 50.1% and 46%
Nc1cc(O)nc(N)n1	THP-1	pyroptotic LDH release	2 µM, 40 min, with: LPS then nigericin		-10.9%
CCOC(=O)c1nn(-c2ccccc2)c(C#N)c1NC(=O)c1nn(CC)cc1Br	human monocytes	phagocytosis of anti-D RBCs	5 µM, lab-synthesized sample		41 ± 6.3%
C/C1=C\CC[C@]23O[C@H]2[C@@H](OC3=O)c2c(C)coc2C1	THP-1	pyroptotic LDH release	2 µM, 40 min, with: LPS then nigericin		-7.26%
CCOC(=O)c1nn(-c2ccccc2)c(C#N)c1NC(=O)c1ccn(CC)n1	human monocytes	phagocytosis of anti-D RBCs	5 µM, lab-synthesized sample		1.1 ± 1.7%
Cc1[nH]c(/C=C2\C(=O)Nc3ccc(S(=O)(=O)N(C)c4cccc(Cl)c4)cc32)c(C)c1C(=O)N1CCN(C)CC1	THP-1	pyroptotic LDH release	2 µM, 40 min, with: LPS then nigericin		-2.82%
CC(=O)OC[C@H]1O[C@@H]([S-])[C@H](OC(C)=O)[C@@H](OC(C)=O)[C@@H]1OC(C)=O.CCP(CC)CC.[Au+]	HUVEC	tube branching nodes, tube formation	IC10, 16 h	baseline: untreated	35%
Cc1cc(N2CCc3c(c(C)nn3CC34CCC(NC(=O)[C@@H]5COCCN5)(CC3)CC4)C2)c2cnn(C)c2n1	human PBMC	qRT-PCR, measured: RSAD2 mRNA	100 nM, with: ssRNA		98 ± 1%
